Measurements from different studies.
Each numbered part is a random draw from the data of one study; scales do not carry over between parts.

Study 1
Target: RNA binding protein fox-1 homolog 2, RRM domain, GST-SBP tag (RBFOX2, Homo sapiens, UniProt O43251-10, residues 100-194)
Technique: RNA Bind-n-Seq
Molecule type: RNA
Matrix: in vitro
Tested at: 365 nM
Notes: natural RNA segment, single round, ends assumed
Reference: no-protein control
Reading: higher = stronger binding
All sequences stand within: GGGAGUUCUACAGUCCGACGAUC … UGGAAUUCUCGGGUGCCAA
Construct (chain): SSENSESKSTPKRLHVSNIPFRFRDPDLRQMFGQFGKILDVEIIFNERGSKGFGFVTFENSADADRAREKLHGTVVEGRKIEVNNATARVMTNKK
| Strand | RBNS enrichment (R) |
| --- | --- |
| AGAACUAGUAGACCCUUUUUCCCAGGCACUGACCCCCCACCUUUGUCUGUGUUGUGCCCAAGUGCCUGCGCCACCCCCACCCUCCUGCUGCGCUGACCGCUGCAUGGUGU | 0.537 |
| GAACUCAGAAGGAUGGCAUUUUUUGCAAGUUAAAGAAAAUCAGGAUCUGAGUUAUUUUGCUAAACUUGGGGGAGGAGGAACAAAUAAAUGGAGUCUUUAUUGUGUAUCAU | 1.95 |
| CUUGAGAAUCUCCAAGAGAAAAAUAUUUGGGGAAGGAGGGAGGAAAUAUGUCCCUUGCACACCACCCCUGAAGCACAUGGCAGUAGGAAACAGCAUAGGAUUGUAUGUGG | 1.16 |
| GCUGCCCUCUGCCACCCUGUGGCUGCCCUGGCUCUCUGGUCUCUAUCACCCACACAGCACCAUCUCCCCGGCUUGGCUUGGUUAGAAUGGUGAGGGGUUUACAGGGUAAG | 0.284 |
| UUAACCCUUUAUCUUUCUGCCCACCCUGCCCAAACAUAUUUUAACCCAGGUUCUAAACUGAAACUGACUAGAGAUGAAUCCAGCGCCUGACAGAAUGUCAUUCUCCUUCA | 0.364 |
| UAUUAUUAAAUGUUUAAAGUAAGGGAAAAGUCUGGGCUGCCUUCCUUAAUAUUGCAUCUCACUCCCACCCUUAAAACCACAGAUUGCAAAGCAUAGCAUUUUAGCAUCAA | 4.92 |
| CCAGUGGGCUGUGUUGACUGCUGCUCCCCACCCCUACCGAUGGUCCCAGGAAGCAGGGAGAGUUGGGGAAGGCAAGAUUGGAAAGACAGGAAGACCAAGGCCUCGGCAGA | 0.385 |
| AAGCCAGCCUCACCAACAACACCAUGUCUGCUCAGCAGUAUGCAGAUAUGUGGGGAUAGUCUCUCAGGCUGGCAUGGGCCCCUUUCUGCUAUGCGCCCUAUUAGGAAGAG | 0.901 |
| AUGUAAACUAUUCUUUAGAAAAAUGCAUUCACUCUUUAAUAAAAGUAUGUUUGUGUUAAUAAAGCCAGGGCGUUUCACACUUUAUAUGAACUUCCCUUUUUUUAAGAAAU | 0.43 |
| GGUCCCUUGAGCCAAAGGCCUACCAUCUGCUCGAGGAGUCCCCAUGUCCCUUGGCUGCUCUCGGGUCUUCCUGUCAGGUCUGUCCAGUUGUGGGGUGGUAGUGUGAAUGG | 1.01 |
| GCAGCCCCUCCAGCUGCUGGUGAUCUCACCCCUGGGACAUUUUUCCAAUAAAGGUUCUGGACAAACUGAACUGACUGGUUCCUGUAUGGUAUGCUGAAGACAUCUCUACA | 0.376 |
| GCCUCGCCACUGAGAUACUAACUAGACCUAGACUAGGAGCUUUAUCAGGUUCUAGGAGGUCCUUUAGGAAGACUCUCAAAGGCAAAUCCCUGAUCCCCCGCCCCACCCUU | 0.318 |

Study 2
Target: Sal-like protein 4, full length isoform B (SALL4, Homo sapiens, UniProt Q9UJQ4-2, residues 1-616)
Technique: universal PBM
Molecule type: double-stranded DNA, one strand shown
Matrix: in vitro
Tested at: not given
Notes: 8-mer, flanks averaged, mean of replicates
Reading: higher = stronger binding
| Strand | E-score |
| --- | --- |
| AGGTACCA | -0.0915 |
| ATTCTAAG | 0.0819 |
| ATACGAGC | 0.0734 |
| AGGACTTA | 0.0625 |
| GAACCCGC | -0.233 |
| CAATATCC | 0.147 |
| AAACGATA | 0.173 |
| CGCTGCCC | -0.293 |
| GATCACGA | 0.00048 |
| GACACGGA | -0.168 |
| CTTAGGCC | -0.211 |
| GAGTGATA | 0.206 |
| GAGCGCTA | -0.142 |
| ACACTGGC | -0.128 |
| TGGCGACA | -0.041 |
| CTAGAATA | 0.296 |
| CTACCCCA | -0.0608 |
| AACAGTAT | 0.279 |
| ACCTAGGT | -0.278 |
| AGAGTGGA | -0.0668 |
| ACGCCCAA | -0.0429 |
| TCCAGCCA | -0.218 |
| AAGGTAGT | 0.137 |
| GACCTAAA | -0.00035 |
| GGCGGGAA | -0.127 |

Study 3
Target: Histone acetyltransferase KAT6A, winged helix 1, GST fusion (KAT6A, Homo sapiens, UniProt Q92794, residues 1-85)
Technique: protein binding microarray
Molecule type: double-stranded DNA, one strand shown
Matrix: in vitro
Tested at: not given
Notes: 8-mer, flanks averaged, mean of 2 arrays, mostly near background
Reference: not given
Reading: higher = stronger binding
Construct (chain): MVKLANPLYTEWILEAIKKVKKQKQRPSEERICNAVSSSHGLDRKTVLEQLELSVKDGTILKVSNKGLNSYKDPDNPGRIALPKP
| Strand | E-score |
| --- | --- |
| TCGAAAGA | -0.199 |
| AAACACGC | 0.256 |
| CTTATTCC | -0.118 |
| CCAATAGA | -0.259 |
| CCCACGGG | 0.183 |
| ACCACAGT | -0.177 |
| AGTTTCCG | 0.15 |
| ATTAGCCG | 0.253 |
| ACTCAGTG | -0.312 |
| ATCACGTA | -0.0596 |
| ATTTGGAG | -0.247 |
| ACTTAACA | -0.162 |
| AGCACTGC | 0.107 |
| ACTGCCGG | 0.312 |
| GCGATAGC | 0.138 |
| GAAATAAC | -0.203 |
| GAATTCCC | -0.0618 |
| GGTTGAGA | -0.0591 |

Study 4
Target: RING finger protein unkempt homolog, zinc fingers 1-6, GST-SBP tag (UNK, Homo sapiens, UniProt Q9C0B0, residues 30-357)
Technique: RNA Bind-n-Seq
Molecule type: RNA
Matrix: in vitro
Tested at: not given
Notes: RNA with constant flanks, human and mouse sites, ends assumed
Reference: input RNA pool
Reading: higher = stronger binding
All sequences stand within: GGGAGUUCUACAGUCCGACGAUC … CAACAGAGGAUUGAGCAUCA
Target sequence (chain): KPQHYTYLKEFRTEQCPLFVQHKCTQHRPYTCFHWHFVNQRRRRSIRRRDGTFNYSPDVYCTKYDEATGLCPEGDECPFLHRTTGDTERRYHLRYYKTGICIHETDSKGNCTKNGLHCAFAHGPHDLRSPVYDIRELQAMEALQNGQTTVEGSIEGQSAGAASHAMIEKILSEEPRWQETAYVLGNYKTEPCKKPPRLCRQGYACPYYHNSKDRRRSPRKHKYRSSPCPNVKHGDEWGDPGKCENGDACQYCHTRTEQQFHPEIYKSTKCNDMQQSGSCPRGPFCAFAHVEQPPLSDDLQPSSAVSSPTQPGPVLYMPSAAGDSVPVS
| Strand | bound/input enrichment [ratio] |
| --- | --- |
| GUGUUUGAGGAGAUGAAUGUGGAUCUGCAGGAGGAGCUGCCGUCCCUGUGGAACAGCCGCGUAGGUUUCUACGUCAACACGUUCCAGAGCAUCGCGGGCCUGGAGGAAAACUUCCACAAG | 0.106 |
| AGAACCUUUUCCACACACCUCCUCCUUCCUGUUCUCUUUGAACCAUUCAUCACCUCUGCCUUCCUCCUAUCCCCAGCCCAAUAAAUUAAAACAAUUAACUGAGCAAAUUAAUUAGGCUUC | 1.23 |
| GCUGGUCAUAGAAUAGGUGAAUACCUUGAGAAGAUAAUUCCUUUGGUGGUAAAAUUUUGCAAUGUAGAUGAUGAUGAAUUAAGAGAGUACUGUAUUCAAGCCUUUGAAUCAUUUGUAAGA | 3 |
| GAGAAGACUGGCCACAGUGGCACACUAGAUCCCAAAGUGACUGGUUGUUUAAUUGUGUGCAUUGAACGAGCCACUCGUUUGGUGAAAUCACAACAGAGUGCAGGCAAAGAGUAUGUUGGA | 0.302 |
| GCAUCACAGAGUGAACUGCCAUUAAGACAUCCAAGGUUUUAUCCAAAGCUGUUUGCUGGUAUUAGACAGAAGGCAGUGUCGAGCAGCCCUUCUGGAAAUGUUGCAUGGCCAGUGCUCUAG | 0.169 |
| AGCUCUGCCAGGAUGGUGACCGCAGUGCCCGCUGUGUUUUCCAAGCUGGUAACCAUGCUUAAUGCUUCUGGCUCCACCCACUUCACCAGGAUGCGCCGGCGUCUGAUGGCUAUCGCGGAU | 0.0886 |
| AUAGUUAUUUAAGGAUUGUUUAUUGAUGAGGUUGGUAAAAUCUAGAAAGGCCAAGGACUUUGUGAAGACUUCAUGUAAGGAAGACUAUAGGUUACCAUUUUAAAAAUAAUGUUCUUGCUU | 2.43 |
| UGAGACCGACGUGUUUGUUGUUGGAACCGAAAGAGGGCGUGCUUUUGUCAAUACCAGAAAAGAUUUCCAAAAAGACUUUGUGAAGUAUUGUGUUGAAGAAGAAGAAAAGGCCGCCGAGAU | 0.181 |
| GAGAACAAUGUUUUGAUUCAGUAUACUAAUGCAUGUGUAAAAGUUUGUGUUUAUGUAAGAAAACAAGUUGAGAAGAUUAAAAAUUCCAUGGAUGGGAAGAAUGUGGACACAGUUCUGAUG | 0.18 |
| CCAAAGGAUCCGAUUUGCAUAGCGGAGCUCCAGCUGUUGUGGGAAGAGAGGACCAGCCGGCAACUUUUAUCCAGCUCUAAACUUUAUUUCCUCCCAGAAGACACUCCCCAGGGCAGAAAU | 0.403 |
| UUUGUCCUGGAAAUCUGGAAAGCUUGCUUUGUGGGACUCAUUGAGUCCCCCGAGGGCACGCAGGAGCUGAAGUGGACAGCUUUCACCUACCUCAAGAUUCCACAGGUCUUGGUGAAGUUG | 0.143 |

Excerpt of the above (study 4):
| Strand | bound/input enrichment [ratio] |
| --- | --- |
| AGAACCUUUUCCACACACCUCCUCCUUCCUGUUCUCUUUGAACCAUUCAUCACCUCUGCCUUCCUCCUAUCCCCAGCCCAAUAAAUUAAAACAAUUAACUGAGCAAAUUAAUUAGGCUUC | 1.23 |
| GCUGGUCAUAGAAUAGGUGAAUACCUUGAGAAGAUAAUUCCUUUGGUGGUAAAAUUUUGCAAUGUAGAUGAUGAUGAAUUAAGAGAGUACUGUAUUCAAGCCUUUGAAUCAUUUGUAAGA | 3 |
| GAGAAGACUGGCCACAGUGGCACACUAGAUCCCAAAGUGACUGGUUGUUUAAUUGUGUGCAUUGAACGAGCCACUCGUUUGGUGAAAUCACAACAGAGUGCAGGCAAAGAGUAUGUUGGA | 0.302 |
| GCAUCACAGAGUGAACUGCCAUUAAGACAUCCAAGGUUUUAUCCAAAGCUGUUUGCUGGUAUUAGACAGAAGGCAGUGUCGAGCAGCCCUUCUGGAAAUGUUGCAUGGCCAGUGCUCUAG | 0.169 |
| AGCUCUGCCAGGAUGGUGACCGCAGUGCCCGCUGUGUUUUCCAAGCUGGUAACCAUGCUUAAUGCUUCUGGCUCCACCCACUUCACCAGGAUGCGCCGGCGUCUGAUGGCUAUCGCGGAU | 0.0886 |
| AUAGUUAUUUAAGGAUUGUUUAUUGAUGAGGUUGGUAAAAUCUAGAAAGGCCAAGGACUUUGUGAAGACUUCAUGUAAGGAAGACUAUAGGUUACCAUUUUAAAAAUAAUGUUCUUGCUU | 2.43 |
